Measured values from different studies.
Each numbered part is a random draw from the data of one study; scales do not carry over between parts.

Set 1
Target: RING finger protein unkempt homolog, zinc fingers 1-6, GST-SBP tag (UNK, Homo sapiens, UniProt Q9C0B0, residues 30-357)
Sequence of UniProt Q9C0B0 (30-357, looked up): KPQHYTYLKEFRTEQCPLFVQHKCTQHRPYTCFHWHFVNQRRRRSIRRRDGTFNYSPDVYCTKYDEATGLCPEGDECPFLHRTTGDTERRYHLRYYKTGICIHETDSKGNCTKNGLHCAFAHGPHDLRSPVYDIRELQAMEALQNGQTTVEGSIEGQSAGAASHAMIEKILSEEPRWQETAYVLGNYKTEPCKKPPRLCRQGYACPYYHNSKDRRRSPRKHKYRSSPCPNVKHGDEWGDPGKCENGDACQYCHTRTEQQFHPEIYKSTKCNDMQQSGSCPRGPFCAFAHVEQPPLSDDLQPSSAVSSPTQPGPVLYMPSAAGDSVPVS
Method: RNA Bind-n-Seq
Form: RNA
Medium: in vitro
Concentration: not given
Notes: RNA with constant flanks, human-mouse chimeric sites, ends assumed
Baseline: input RNA pool
Reading: higher = stronger binding
Measurement: bound/input enrichment
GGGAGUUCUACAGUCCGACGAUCGAAACAUUUAAAUUUAAAGAAGCUGUUGUUCUAGGAAGUACGGACUUUCUAGAAGAUGAUAUAGAAAAAAUUGUAGAAGAACUGGGGAAAGAGUAUAAAGGCAAUGCCUACCAUCUGAUGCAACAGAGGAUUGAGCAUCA: 2.2 ratio
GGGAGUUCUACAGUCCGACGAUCACCUCCCCCUCCCGCCUCACCCCACCCCCGCUUUUUGAAAGUGUGUUGGCGUUUCUUUUUUUUAGAAAUACAAAGUGAUUACAGUUUCCCCCGCAAGGGUCUAUCGAAGGGCUUGACGGACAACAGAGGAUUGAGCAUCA: 0.661 ratio
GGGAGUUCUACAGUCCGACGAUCGGACAUCUGUCAAAUUGUUAUGUUCCUGUGAAACAAGUGAACACUCUGAUACACUUCAUCUGCUUGUACAUCUGUAUGAUAGAGAAAUGUAAAUAUGAAUAUAUUUACAAUGUGUCACUUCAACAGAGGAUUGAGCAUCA: 0.122 ratio
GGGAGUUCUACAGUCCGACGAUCCCAAUUGUGGAGCAGUACUUGAAGACAAAAAAGAACUCUAAUAAUUUAAUCAUCAAGUACAUUAGCUGCCGCCUGCUGACAUUUGUGAUUAUACUGUUAGCGUGUAUCUACCUGGGCUAUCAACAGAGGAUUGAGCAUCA: 0.383 ratio
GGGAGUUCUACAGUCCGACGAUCUGUAGUUUCGCGGUUCAGGCUUUGUGUGUAGUUCACUUACGGUAUUAAAUUAUUAUUCUGCUUAGCUUAUAAUAAGGAUAAUUGCAUUUAAAGAGGUUACUGAAUGUUGUUAUUGUUCUUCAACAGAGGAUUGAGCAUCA: 1.39 ratio
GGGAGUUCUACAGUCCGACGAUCGAUCAUGAACCACCAUCAGAAAUGAAGAUGAGAUUACCCAAGACGAGCAAAACAGCUAGCACUAGAAAAAGUAAACUUAACCUUGCAGAGUUCCUUAAUGAAGAUACAAGUUAAGAGAGCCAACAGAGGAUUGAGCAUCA: 1.62 ratio
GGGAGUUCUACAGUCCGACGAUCACAGUUAUAUUGUUGAGUUUCAUUUUCAUAUAUUCUUAUGGUGUCUGCUUGCCUGUGACUUCUGGUAAAAUAAAAUAAGCCUUUGAAAAUAUUUUAGCAUGGUAUUUUUCUAAAAAUAAACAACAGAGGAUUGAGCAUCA: 1.36 ratio
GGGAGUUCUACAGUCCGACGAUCGGGACUGAUUCAUCCCAAGGACAGGCAACCCCAUUUGAUGCCUGGACUGACGACAGUAUGGAAGGGCCUAGUCAAAAUGUUGAAGCUGAGUCAAUUCAGGAUGCCAUGAGUAUGGAAGAGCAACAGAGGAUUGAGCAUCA: 0.382 ratio
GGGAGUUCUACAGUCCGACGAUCAAAGCCCUUGAAGAAAAAAAAAACUCGAACAGAUUUGACAAGGGUAGCCAGCUUGGAGUCUAGCAACUUGCCAAUGUGUUUACCAAUCUGGGGGCUUUGUUUUUCUUUCUUCUUUCAAAUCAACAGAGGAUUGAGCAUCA: 0.301 ratio
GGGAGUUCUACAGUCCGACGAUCCAGACUGUGUCAUACUUUUUAGACAUUCACAUCAGACUUACAGAGCACCUGGCCACAUUCUAGGUUUGUGUUAUUUCUAAGCCUUUUAUAUGAUCAAAUGAGAACACUGCUUAACUAAUGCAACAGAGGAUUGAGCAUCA: 0.505 ratio
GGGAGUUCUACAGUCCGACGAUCAACUUCGUGCAUCGGUUUCCCUUUGUAGCUGUUUCAAUUGGCUUUGCUGUAAAUAAAGAGAUGGAGUUUGGAAUUGUGUACAGCUGUGUGGAAGAUAAGAUGUACACCGGCAGGAAAGGGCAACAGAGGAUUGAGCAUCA: 0.411 ratio

Set 2
Target: Sal-like protein 4, full length isoform A (SALL4, Homo sapiens, UniProt Q9UJQ4, residues 1-1053)
Sequence of UniProt Q9UJQ4 (whole entry, looked up): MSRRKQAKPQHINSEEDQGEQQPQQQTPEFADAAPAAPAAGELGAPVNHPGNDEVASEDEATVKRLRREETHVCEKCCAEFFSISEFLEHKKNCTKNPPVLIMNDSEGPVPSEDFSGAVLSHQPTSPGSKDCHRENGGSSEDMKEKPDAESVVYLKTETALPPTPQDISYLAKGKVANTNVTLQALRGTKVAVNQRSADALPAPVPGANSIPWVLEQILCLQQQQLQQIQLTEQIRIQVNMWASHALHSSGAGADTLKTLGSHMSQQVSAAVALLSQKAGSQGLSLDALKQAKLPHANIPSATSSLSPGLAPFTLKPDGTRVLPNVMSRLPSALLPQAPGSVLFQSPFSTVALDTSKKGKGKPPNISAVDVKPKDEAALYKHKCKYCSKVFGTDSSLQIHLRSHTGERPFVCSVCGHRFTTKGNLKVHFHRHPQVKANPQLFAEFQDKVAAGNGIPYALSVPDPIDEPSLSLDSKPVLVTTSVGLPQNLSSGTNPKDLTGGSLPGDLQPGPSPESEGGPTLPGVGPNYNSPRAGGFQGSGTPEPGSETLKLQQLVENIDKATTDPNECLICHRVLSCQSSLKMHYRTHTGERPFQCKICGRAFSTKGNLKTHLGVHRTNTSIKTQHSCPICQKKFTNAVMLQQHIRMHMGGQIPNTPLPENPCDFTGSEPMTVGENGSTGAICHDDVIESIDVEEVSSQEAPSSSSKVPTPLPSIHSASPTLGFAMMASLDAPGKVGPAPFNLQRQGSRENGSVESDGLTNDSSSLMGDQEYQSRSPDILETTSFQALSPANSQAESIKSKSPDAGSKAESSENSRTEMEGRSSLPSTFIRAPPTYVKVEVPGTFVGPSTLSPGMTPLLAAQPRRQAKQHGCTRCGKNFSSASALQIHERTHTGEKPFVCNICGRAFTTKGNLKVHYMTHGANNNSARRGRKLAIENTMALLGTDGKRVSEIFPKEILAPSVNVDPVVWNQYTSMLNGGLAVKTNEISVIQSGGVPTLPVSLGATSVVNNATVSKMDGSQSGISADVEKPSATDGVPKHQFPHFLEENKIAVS
Method: universal PBM
Form: double-stranded DNA, one strand shown
Medium: in vitro
Concentration: 600 nM
Notes: 8-mer, flanks averaged, mean of replicates
Reading: higher = stronger binding
Measurement: E-score
CAGGGATC: -0.313
TATCACCA: 0.146
CCGTAGAA: -0.0569
AAGACCAA: 0.0588
CGCCTGGA: -0.268
GTACGAGA: 0.13
AGACTTTA: 0.136
AAATACAA: 0.4
CATCTGGG: -0.19
AACTTAGG: 0.0238
AGAACACC: -0.107
CGGGCTCC: -0.357
AGACCACC: -0.206
ACACTCGG: -0.135
AATCAAGA: 0.212
GGGTATAA: 0.15
CCGCAGTC: -0.252
GAACTGGC: -0.237
ATCGCAGG: 0.00956
CTGCGTTA: 0.00347

Set 3
Target: Histone acetyltransferase KAT6A, winged helix 1, GST fusion (KAT6A, Homo sapiens, UniProt Q92794, residues 1-85)
Method: protein binding microarray
Form: double-stranded DNA, one strand shown
Medium: in vitro
Concentration: not given
Notes: 8-mer, flanks averaged, mean of 2 arrays, mostly near background
Baseline: not given
Reading: higher = stronger binding
Measurement: E-score
Construct (chain): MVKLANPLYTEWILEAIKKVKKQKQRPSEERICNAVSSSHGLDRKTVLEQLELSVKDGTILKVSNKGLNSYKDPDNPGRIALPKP
ACGTAACC: 0.0195
CACCCTAC: -0.139
ACGCGGCC: 0.305
CGCCTGAA: -0.0137
TAATAAAA: -0.0446
GAAGATAC: 0.0889
GTTTAGCA: -0.0244
TCATTCCA: -0.0623
AGGAGATA: -0.173
GGCAGGAA: 0.0411
AAATTTGA: -0.193
ATTTTCAA: -0.219
ATTTGAGG: -0.21
ACATGGCA: -0.21
AGGTCAAG: -0.23
CTGTTCGA: -0.301

Set 4
Target: Ras GTPase-activating protein-binding protein 1, C-terminal RGG region (G3BP1, Homo sapiens, UniProt Q13283)
Sequence of UniProt Q13283 (whole entry, looked up): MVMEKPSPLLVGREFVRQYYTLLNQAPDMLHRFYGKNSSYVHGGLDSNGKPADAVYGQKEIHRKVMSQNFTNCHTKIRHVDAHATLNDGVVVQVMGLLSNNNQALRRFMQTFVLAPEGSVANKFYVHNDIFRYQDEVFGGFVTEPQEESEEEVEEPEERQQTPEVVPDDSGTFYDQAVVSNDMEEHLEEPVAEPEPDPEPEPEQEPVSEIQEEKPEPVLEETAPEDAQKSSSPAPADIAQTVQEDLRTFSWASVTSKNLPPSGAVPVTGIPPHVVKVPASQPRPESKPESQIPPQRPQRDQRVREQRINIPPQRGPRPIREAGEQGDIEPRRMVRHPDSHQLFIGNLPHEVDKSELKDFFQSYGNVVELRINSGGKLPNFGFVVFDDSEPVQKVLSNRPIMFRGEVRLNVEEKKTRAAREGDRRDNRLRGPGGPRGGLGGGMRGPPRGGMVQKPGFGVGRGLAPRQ
Method: RNA Bind-n-Seq
Form: RNA
Medium: in vitro
Concentration: 1 µM
Notes: whole 134-nt RNA, ends assumed
Added: 150 mM KCl
Baseline: input library
Reading: higher = stronger binding
Measurement: log2 enrichment
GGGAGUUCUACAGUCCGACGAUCUGUAUCCCUGUUUCUUUUCUCCCUACAGAAACAUAUGAGGAUUUUGAUACCAGGAUACUUGAGGUAGGCAUGCAGAAUUAAAUACCUGGUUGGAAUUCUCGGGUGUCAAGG: -0.907
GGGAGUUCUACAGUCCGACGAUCAGGACGUGCAGAACUUCCUCUCUGACUGCACGAUUCAUGAUGGGGCCGCAGGUGUCCAUUUCAUCUACACUAGAGAGGGCAGGCAGAGUGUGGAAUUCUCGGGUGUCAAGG: -0.0876
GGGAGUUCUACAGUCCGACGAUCGUCCUGUGCUACACAUCGUAUGUACCGAAUCGGUUUUUGGUUUUUUUGGAAAAAAAGGAAAGUAUUAUGUUACGCCGUUCGGAUCUGCACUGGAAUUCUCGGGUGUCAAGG: -1.76
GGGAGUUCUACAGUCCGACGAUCCUCAAGUCCUGUGCUACACAUCGUAUGUACCGAAUCGGGGCCGGGGCCGGCCGGAAAGUAUUAUGUUACGCCGUUCGGAUCUGCACUUCCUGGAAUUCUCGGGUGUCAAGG: -1.35
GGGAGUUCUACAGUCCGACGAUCCUCAAGUCCUGUGCUACACAUCGUAUGUACCGAAUCGGAGGAAAAAGGUUUGGAAAGUAUUAUGUUACGCCGUUCGGAUCUGCACUUCCAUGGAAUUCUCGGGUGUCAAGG: -1.27
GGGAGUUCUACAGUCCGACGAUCGUCCUGUGCUACACAUCGUAUGUACCGAAUCGGGUUUUUUUGGGAGGGAAAAAAAGGGAAAGUAUUAUGUUACGCCGUUCGGAUCUGCACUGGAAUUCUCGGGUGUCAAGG: -0.656
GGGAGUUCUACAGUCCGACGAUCCACAGACAACACGCACCCACACAGACACAGAGGGAAGGUGUUGGGAUGGGGACAGGGUGCACAGCAGGGCGGGGUAGGACCCCAGCCCCUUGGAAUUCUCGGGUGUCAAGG: -0.653
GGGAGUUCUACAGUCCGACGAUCUGGCCCUGGUGGCAUGCGGGGUGGAAGAGGUGGCCUCAUGGAUCGUGGUGGUCCCGGUGGAAUGUUCAGAGGUGGCCGUGGUGGAGACAGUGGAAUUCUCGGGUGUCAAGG: 2.38
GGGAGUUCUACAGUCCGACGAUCCUGUGCUACACAUCGUAUGUACCGAAUCGGGGAAAAAAAGGGGAAAAAGGGGAAAAAGGGGAAAGUAUUAUGUUACGCCGUUCGGAUCUGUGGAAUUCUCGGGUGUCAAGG: 0.122
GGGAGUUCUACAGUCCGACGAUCUGGAGCCCAACCUGUGCCGCUCAGUCCUCAUUGCCAACACGGUCCGGCAGAUCCAAGAGGAGAUGACGCAGGAUGGGACGUGGCGCACAGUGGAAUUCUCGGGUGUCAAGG: -1.39

Repeated from above (set 1):
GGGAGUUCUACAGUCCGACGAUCCCAAUUGUGGAGCAGUACUUGAAGACAAAAAAGAACUCUAAUAAUUUAAUCAUCAAGUACAUUAGCUGCCGCCUGCUGACAUUUGUGAUUAUACUGUUAGCGUGUAUCUACCUGGGCUAUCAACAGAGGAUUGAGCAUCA: 0.383 ratio
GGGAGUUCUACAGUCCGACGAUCUGUAGUUUCGCGGUUCAGGCUUUGUGUGUAGUUCACUUACGGUAUUAAAUUAUUAUUCUGCUUAGCUUAUAAUAAGGAUAAUUGCAUUUAAAGAGGUUACUGAAUGUUGUUAUUGUUCUUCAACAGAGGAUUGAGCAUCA: 1.39 ratio
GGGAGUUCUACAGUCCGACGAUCGAUCAUGAACCACCAUCAGAAAUGAAGAUGAGAUUACCCAAGACGAGCAAAACAGCUAGCACUAGAAAAAGUAAACUUAACCUUGCAGAGUUCCUUAAUGAAGAUACAAGUUAAGAGAGCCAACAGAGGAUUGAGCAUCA: 1.62 ratio
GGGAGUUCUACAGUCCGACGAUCACAGUUAUAUUGUUGAGUUUCAUUUUCAUAUAUUCUUAUGGUGUCUGCUUGCCUGUGACUUCUGGUAAAAUAAAAUAAGCCUUUGAAAAUAUUUUAGCAUGGUAUUUUUCUAAAAAUAAACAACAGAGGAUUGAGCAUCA: 1.36 ratio
